Assay results gathered from unrelated publications.
Every numbered part comes from another study and shows a few of its results, in no order. Changes are numbered by the printed parent chain.

Sample 1
Target: Myc proto-oncogene protein, bHLH-zipper, MAX partner unstated (MYC, Homo sapiens, UniProt P01106, residues 368-449)
UniProt P01106, sequence (368-449, looked up): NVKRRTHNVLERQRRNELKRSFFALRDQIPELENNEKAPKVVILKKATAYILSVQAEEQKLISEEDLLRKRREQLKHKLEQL
Method: protein-binding microarray
Molecule type: double-stranded DNA, one strand shown
Sample: in vitro
Tested at: not given
Setting: k-mer, scored over probes, only values ≥0.25
Reading: higher = stronger binding
Strand	E-score
CGACCTCG	0.256
GTGCAGAA	0.271
CACGCGTA	0.43
ACGTGGAG	0.426
ACGTGTTG	0.412
ATGTGGGC	0.351

Sample 2
Target: CCNA1, cyclin fold, Cln2 fusion (human)
Method: yeast growth competition, sequencing
Sample: yeast
Setting: weak parent motif
Baseline: not given
Reading: higher = stronger binding
Parent: SLBP docking peptide (human); ARYKRKLLINDFG; partner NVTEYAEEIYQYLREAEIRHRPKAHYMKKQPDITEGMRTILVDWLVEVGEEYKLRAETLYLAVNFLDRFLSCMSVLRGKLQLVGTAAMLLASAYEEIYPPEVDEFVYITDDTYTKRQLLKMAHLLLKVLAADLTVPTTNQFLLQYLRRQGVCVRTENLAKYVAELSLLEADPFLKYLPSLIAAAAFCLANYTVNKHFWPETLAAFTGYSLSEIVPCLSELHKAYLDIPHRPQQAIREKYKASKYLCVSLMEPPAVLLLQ
Change	normalised enrichment score
ARYKRKLLINIFG [D11I]	0.0147
ARYKRKLLINTFG [D11T]	0.486
ARYKRKPLINDFG [L7P]	0.114

Sample 3
Target: Histone acetyltransferase KAT6A, both winged helices, GST fusion (KAT6A, Homo sapiens, UniProt Q92794, residues 1-181)
Method: protein binding microarray
Molecule type: double-stranded DNA, one strand shown
Sample: in vitro
Tested at: not given
Setting: 8-mer, flanks averaged, mean of 2 arrays, mostly near background
Baseline: not given
Reading: higher = stronger binding
Target sequence (chain): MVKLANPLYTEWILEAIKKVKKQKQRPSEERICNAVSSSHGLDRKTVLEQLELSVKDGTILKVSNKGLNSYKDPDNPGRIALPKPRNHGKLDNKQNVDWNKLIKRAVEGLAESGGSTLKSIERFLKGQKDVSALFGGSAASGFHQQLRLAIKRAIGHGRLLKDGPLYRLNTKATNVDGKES
Strand	E-score
ATGAAAGA	-0.124
CGCGGGAA	0.318
CCCGCTAC	0.211
TGTAAGAA	-0.0516
CAAGCTTG	0.0305
AAAGGTCG	-0.11
CGGCTTAA	0.328

Single results of other studies
Molecule	target	assay	system	setting	scale	measurement	value
PhoQ, residues 284 288 289 292 302 303 HSYLQF	PhoP, residues 12 14 15 18 19 LHHVQ (Escherichia coli, UniProt P23836)	Sort-seq, refers to: YFP reporter	E. coli	PhoQ-PhoP variant library, added: 10 µM Mg2+	baseline: high Mg2+ state, higher = stronger signaling	fold induction	10.5
